Experimental data pooled from the literature.
Numbered parts are unrelated; each lists some results of a single study. Changes are numbered by the printed parent chain.

Sample 1 — method: protein-binding microarray; form: double-stranded DNA, one strand shown; matrix: in vitro; concentration: 0.8 µM; setting: whole 60-bp probe, no competitor; direction: higher = stronger binding; shared flanks, not repeated: … GTCTTGATTCGCTTGACGCTGCTG
Target: Centromere-binding protein 1, full length, N-terminal tag (CBF1, Saccharomyces cerevisiae, UniProt P17106, residues 1-351)
Sequence of UniProt P17106 (whole entry, looked up): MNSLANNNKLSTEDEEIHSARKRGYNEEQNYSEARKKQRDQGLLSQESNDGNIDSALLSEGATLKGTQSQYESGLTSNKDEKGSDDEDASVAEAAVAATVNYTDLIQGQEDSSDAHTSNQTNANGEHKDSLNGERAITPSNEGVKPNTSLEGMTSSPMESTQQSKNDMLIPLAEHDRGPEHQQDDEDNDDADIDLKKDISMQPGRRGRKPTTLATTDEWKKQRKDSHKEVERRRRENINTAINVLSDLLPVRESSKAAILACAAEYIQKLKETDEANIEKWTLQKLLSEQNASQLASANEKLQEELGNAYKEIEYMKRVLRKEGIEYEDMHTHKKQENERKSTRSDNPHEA
Oligonucleotide | fluorescence intensity
CCTAACTACTATAGCAACACGTCATAGCTTCGTACA | 541 a.u.
GAAAGCACAGATGGTCCCGTGGCACGTACCATCTAG | 1280 a.u.
GAAACCGTCTTTCGTCACCATAAGGGGCAAGGCTAG | 520 a.u.
CTAATGGTCTATCATCAGGTTCCCTTAACCGCTTTC | 516 a.u.
CTAATATAAATAAATCACGTCAAACGGTGCGTCTTC | 587 a.u.
GAAAAAGAATATAGTGACACCAAACCATAGAACTAG | 561 a.u.
TGTACGAAGCTATAACGTGACATTATAGTAGTTAGG | 1960 a.u.
GAAAAAAAAGAATGTCACATGGAACGAGGTTACTAG | 1900 a.u.
GAACCAAAAAGTCAGCACGTGATCTGCTAAGAATAG | 22100 a.u.
CTACAAATAAATCATCTCCTGAACCATTTTCTTTTC | 551 a.u.
CCTAACTACTATACTCACGTTAGATAGCTTCGTACA | 544 a.u.
GAATGACGTTAACAACGCACGCCCGCTCCTTGCTAG | 507 a.u.
GAATGAACCCAATTTCACGATATTTTAATATTCTAG | 512 a.u.
CTACACATGAGTCGTCGCACGCCAGTAAATCTATTC | 545 a.u.
GAAATTGTTTTTCATAATGTCACGTGCACTATCTAG | 19500 a.u.
GAAGTAACAGAACATCACGCTACAATCTTAATCTAG | 627 a.u.
CTAATATTATACGAAAACGTGCAGAACGGCACATTC | 680 a.u.
GAAAGCTGTTAGTGCCACATGTTTCTATACAAATAG | 630 a.u.
CTACCCATTATTATATTCGTGACAGTTCGTAACTTC | 559 a.u.
CTAAGCCACTACAGCTACGTGTGATCATATAATTTC | 742 a.u.
GAAGATTTTTTGCCGCACGTTTCCGCGTCAGACTAG | 644 a.u.
GAAGAAAATGTTCATCACCTCCGCTAGTGGCAATAG | 522 a.u.
CTAGTTGTTCTTGCTTCGCTGATGTTTATCAATTTC | 508 a.u.
GAACCTCTTTTCCACCCCGTGAAAAACAGAATATAG | 652 a.u.
TGTACGAAGCTATATCACGCTCTTATAGTAGTTAGG | 638 a.u.

Sample 2 — method: aptamer microarray, sandwich; form: DNA with 2'F-ANA; matrix: in vitro; concentration: 200 nM; added: Cy3 exosite-II aptamer, 400 nM; direction: higher = stronger binding; oligonucleotide: GGTTGGTGTGGTTGG
Target: Prothrombin, mature alpha-thrombin (F2, Homo sapiens, UniProt P00734)
Setting: whole 15-mer aptamer, many near background
Modification | mean fluorescence intensity [a.u.]
2'F-ANA at 1 2 3 | 299
2'F-ANA at 4 5 7 9 12 13 | 80
2'F-ANA at 3 5 7 8 12 14 15 | 70.9
2'F-ANA at 1 4 5 6 8 10 11 12 13 14 | 50
2'F-ANA at 1 2 4 5 7 8 9 10 11 14 | 51.6
2'F-ANA at 1 6 8 9 10 | 57.6
2'F-ANA at 2 3 5 6 8 9 10 12 13 | 55
2'F-ANA at 11 12 14 15 | 254
2'F-ANA at 1 2 4 6 8 10 11 12 14 | 46.9
2'F-ANA at 5 10 11 13 14 | 45.8
2'F-ANA at 2 4 6 7 10 11 12 13 | 87.3
2'F-ANA at 2 4 5 10 11 12 13 14 | 48.1
2'F-ANA at 3 5 6 8 10 11 13 | 51.9
2'F-ANA at 1 2 4 5 6 10 13 | 62.2
2'F-ANA at 2 4 6 7 8 9 14 | 87.7
2'F-ANA at 1 2 3 4 5 6 7 8 13 14 | 215
2'F-ANA at 1 2 5 10 | 46.8
2'F-ANA at 2 7 8 9 10 12 14 | 97.9

Sample 3 — target: CREB3, bZIP domain (human); method: DHFR protein complementation; matrix: yeast; relative to: wild-type JUN-FOS pair; direction: higher = stronger binding
Setting: single substitutions, most at no-binding floor
Starting sequence: JUN, bZIP domain (human); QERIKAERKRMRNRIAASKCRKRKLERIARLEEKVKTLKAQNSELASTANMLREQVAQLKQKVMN; partner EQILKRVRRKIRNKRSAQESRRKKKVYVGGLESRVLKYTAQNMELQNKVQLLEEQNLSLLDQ
Change | binding fitness
E32R | -1.36 natural log
N42I | -1.42 natural log
E44D | -1.35 natural log
S47Y | -1.45 natural log
V56N | -1.39 natural log
S43R | -1.39 natural log
L38A | -1.57 natural log
K34T | -1.4 natural log
V35K | -1.51 natural log
A29N | -1.42 natural log
E32H | -1.55 natural log
T48V | -1.42 natural log
L31Y | -1.43 natural log
M51R | -1.32 natural log
E44K | -1.42 natural log
V56W | -1.51 natural log

Sample 4 — target: CCND3, cyclin fold, Cln2 fusion (human); method: yeast growth competition, sequencing; matrix: yeast; setting: weak parent motif; relative to: not given; direction: higher = stronger binding
Starting sequence: CDC25A docking peptide (human); PPHRRRLLFACSP
Change | normalised enrichment score
PPHRRRELFACSP [L7E] | 0.14
PPHRFRLLFACSP [R5F] | 0.168
PPHRRRLLIACSP [F9I] | 0.137
PPHRRRLLCACSP [F9C] | 0.0921
PPHRRRLLPACSP [F9P] | 0.134
PPHRVRLLFACSP [R5V] | 0.161
SPHRRRLLFACSP [P1S] | 0.1
PPHRQRLLFACSP [R5Q] | 0.179
PPTRRRLLFACSP [H3T] | 0.0824
PPHRRRLLRACSP [F9R] | 0.229
PPHRRRLLFACSW [P13W] | 0.116
LPHRRRLLFACSP [P1L] | 0.058
PPHRRRLLFACSQ [P13Q] | 0.171
PPHRRRLCFACSP [L8C] | 0.0985
PPHRRRLLFAWSP [C11W] | 0.0897
PPHRMRLLFACSP [R5M] | 0.144
PPHRRRLLFACLP [S12L] | 0.171
PPHRRRTLFACSP [L7T] | 0.217
PPHRRRLLFACSC [P13C] | 0.146
PPHRRRKLFACSP [L7K] | 0.125
PPHRRRLLFQCSP [A10Q] | 0.16
PPHRGRLLFACSP [R5G] | 0.124
PPHRRRLYFACSP [L8Y] | 0.176
PPHRRRLAFACSP [L8A] | 0.135
PPHRRILLFACSP [R6I] | 0.105

Sample 5 — method: DHFR PCA, deep sequencing; matrix: yeast; added: (+)-ABA 0.0091 µM; relative to: wild-type fitted maximum; direction: higher = stronger binding
Target: ABI1, truncated, D143A, DHFR fusion (Arabidopsis thaliana)
Setting: methotrexate growth selection, single substitutions
Starting sequence: PYL1, truncated, DHFR fusion (Arabidopsis thaliana); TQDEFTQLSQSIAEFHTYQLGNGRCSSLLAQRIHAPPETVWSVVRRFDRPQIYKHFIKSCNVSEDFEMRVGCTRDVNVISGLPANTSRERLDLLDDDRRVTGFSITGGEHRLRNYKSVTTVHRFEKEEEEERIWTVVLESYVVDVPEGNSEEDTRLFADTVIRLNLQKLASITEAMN
Change | relative binding score [%]
A158I | 50.1
V43T | -1.98
R98N | 5.91
K126F | 12.2
G102V | -0.774
K126L | 24.4
E151R | 13
C25L | 6.86
T135W | -16.4
T154F | -4.25
F47A | -2.47
R98D | -6.84
R98Q | 11.7
S11C | 23.7
H110N | 63.4
L29P | 0.0545
R113H | 13.8
T160W | 1.03
V145Y | 1.57
E174V | -1.75
E4Q | 9.15
I133G | 41
V143F | 2.44
T120F | -2.8
N177I | 22.2

Sample 6 — method: protein binding microarray; form: double-stranded DNA, one strand shown; matrix: in vitro; concentration: not given; relative to: not given; direction: higher = stronger binding
Target: Histone acetyltransferase KAT6A, winged helix 1, GST fusion (KAT6A, Homo sapiens, UniProt Q92794, residues 1-85)
Setting: 8-mer, flanks averaged, mean of 2 arrays, mostly near background
Construct (chain): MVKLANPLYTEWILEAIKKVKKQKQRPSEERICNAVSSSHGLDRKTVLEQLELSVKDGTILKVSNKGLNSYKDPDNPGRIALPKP
Oligonucleotide | E-score
AGGAGCAG | -0.0731
CACCATTA | -0.113
ATACCGAG | 0.0142
AACAGAAA | -0.182
GAACAGAC | 0.00094
GATGCTCC | 0.0573
CCGTATGA | 0.177
ATTCTCAC | -0.164
CCATCGCA | -0.0162
TAGTTGAA | -0.0488
AGAACCAT | -0.116
CCCAGCCC | -0.0812
GGAGGCGA | 0.0373
GATCAACA | -0.105
TACGAAAA | -0.219
CAGGACCA | 0.00477
ACTAACAA | -0.0297
GCGTTCAC | 0.107
ACGTTTTG | -0.322
CTAGGTCC | 0.0837
GAGCGCAA | 0.174

For quick reference, copied from above (sample 2):
Modification | mean fluorescence intensity [a.u.]
2'F-ANA at 2 4 6 7 10 11 12 13 | 87.3
2'F-ANA at 2 3 5 6 8 9 10 12 13 | 55
2'F-ANA at 1 2 3 | 299
2'F-ANA at 3 5 6 8 10 11 13 | 51.9
2'F-ANA at 2 4 5 10 11 12 13 14 | 48.1
2'F-ANA at 5 10 11 13 14 | 45.8
2'F-ANA at 1 2 3 4 5 6 7 8 13 14 | 215
2'F-ANA at 1 6 8 9 10 | 57.6
2'F-ANA at 4 5 7 9 12 13 | 80
2'F-ANA at 1 2 4 5 7 8 9 10 11 14 | 51.6
2'F-ANA at 11 12 14 15 | 254
2'F-ANA at 1 4 5 6 8 10 11 12 13 14 | 50
2'F-ANA at 2 4 6 7 8 9 14 | 87.7
2'F-ANA at 3 5 7 8 12 14 15 | 70.9
2'F-ANA at 2 7 8 9 10 12 14 | 97.9
2'F-ANA at 1 2 4 6 8 10 11 12 14 | 46.9
2'F-ANA at 1 2 5 10 | 46.8
2'F-ANA at 1 2 4 5 6 10 13 | 62.2
